Experimental data collected from several papers.
Numbered parts are unrelated; each lists some results of a single study. “And” joins repeats or separate records; there may be more than shown.
Chain of UniProt P00519 (whole entry, unmodified, looked up): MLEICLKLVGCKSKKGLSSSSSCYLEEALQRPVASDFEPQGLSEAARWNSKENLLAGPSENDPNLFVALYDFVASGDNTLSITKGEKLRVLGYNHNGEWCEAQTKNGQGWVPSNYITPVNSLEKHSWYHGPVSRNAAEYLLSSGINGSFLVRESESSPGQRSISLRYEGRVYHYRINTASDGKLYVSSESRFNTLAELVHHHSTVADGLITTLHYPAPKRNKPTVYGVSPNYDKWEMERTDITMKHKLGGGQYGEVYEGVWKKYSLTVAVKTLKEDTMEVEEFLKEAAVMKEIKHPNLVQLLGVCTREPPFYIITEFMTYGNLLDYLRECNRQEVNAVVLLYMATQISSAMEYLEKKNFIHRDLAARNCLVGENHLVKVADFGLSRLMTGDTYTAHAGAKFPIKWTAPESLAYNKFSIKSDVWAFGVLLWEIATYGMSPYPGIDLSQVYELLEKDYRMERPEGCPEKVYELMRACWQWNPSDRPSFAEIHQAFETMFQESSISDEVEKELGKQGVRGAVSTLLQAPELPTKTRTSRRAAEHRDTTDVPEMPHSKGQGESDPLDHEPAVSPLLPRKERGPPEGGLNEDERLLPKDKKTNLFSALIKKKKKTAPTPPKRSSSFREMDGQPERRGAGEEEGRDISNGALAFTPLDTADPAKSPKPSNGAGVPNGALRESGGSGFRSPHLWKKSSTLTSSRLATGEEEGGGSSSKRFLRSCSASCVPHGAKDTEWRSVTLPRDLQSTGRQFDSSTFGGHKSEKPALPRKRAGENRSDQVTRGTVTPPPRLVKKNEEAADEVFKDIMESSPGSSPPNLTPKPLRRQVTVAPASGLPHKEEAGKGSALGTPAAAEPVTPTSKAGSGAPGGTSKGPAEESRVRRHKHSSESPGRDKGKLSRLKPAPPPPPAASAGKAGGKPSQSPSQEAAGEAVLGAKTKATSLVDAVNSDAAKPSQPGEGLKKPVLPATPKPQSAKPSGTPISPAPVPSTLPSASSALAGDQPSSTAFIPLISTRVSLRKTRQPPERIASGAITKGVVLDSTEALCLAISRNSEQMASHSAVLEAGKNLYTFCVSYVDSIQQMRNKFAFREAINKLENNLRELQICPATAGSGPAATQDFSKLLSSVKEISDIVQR
Chain of UniProt P49760 (whole entry, looked up): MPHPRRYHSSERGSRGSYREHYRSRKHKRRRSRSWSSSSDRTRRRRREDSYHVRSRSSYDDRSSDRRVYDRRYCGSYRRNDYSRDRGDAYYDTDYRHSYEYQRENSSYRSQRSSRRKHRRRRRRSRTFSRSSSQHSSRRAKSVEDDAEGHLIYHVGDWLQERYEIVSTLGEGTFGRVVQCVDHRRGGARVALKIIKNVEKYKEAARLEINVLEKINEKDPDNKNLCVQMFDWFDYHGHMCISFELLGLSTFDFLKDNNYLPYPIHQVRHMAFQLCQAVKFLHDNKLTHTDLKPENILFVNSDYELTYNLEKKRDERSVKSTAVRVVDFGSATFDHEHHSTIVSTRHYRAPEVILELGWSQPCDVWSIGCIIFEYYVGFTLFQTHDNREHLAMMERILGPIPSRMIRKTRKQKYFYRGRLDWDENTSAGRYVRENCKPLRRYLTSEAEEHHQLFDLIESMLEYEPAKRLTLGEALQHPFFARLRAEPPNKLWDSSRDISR
Chain of UniProt Q04759 (whole entry, looked up): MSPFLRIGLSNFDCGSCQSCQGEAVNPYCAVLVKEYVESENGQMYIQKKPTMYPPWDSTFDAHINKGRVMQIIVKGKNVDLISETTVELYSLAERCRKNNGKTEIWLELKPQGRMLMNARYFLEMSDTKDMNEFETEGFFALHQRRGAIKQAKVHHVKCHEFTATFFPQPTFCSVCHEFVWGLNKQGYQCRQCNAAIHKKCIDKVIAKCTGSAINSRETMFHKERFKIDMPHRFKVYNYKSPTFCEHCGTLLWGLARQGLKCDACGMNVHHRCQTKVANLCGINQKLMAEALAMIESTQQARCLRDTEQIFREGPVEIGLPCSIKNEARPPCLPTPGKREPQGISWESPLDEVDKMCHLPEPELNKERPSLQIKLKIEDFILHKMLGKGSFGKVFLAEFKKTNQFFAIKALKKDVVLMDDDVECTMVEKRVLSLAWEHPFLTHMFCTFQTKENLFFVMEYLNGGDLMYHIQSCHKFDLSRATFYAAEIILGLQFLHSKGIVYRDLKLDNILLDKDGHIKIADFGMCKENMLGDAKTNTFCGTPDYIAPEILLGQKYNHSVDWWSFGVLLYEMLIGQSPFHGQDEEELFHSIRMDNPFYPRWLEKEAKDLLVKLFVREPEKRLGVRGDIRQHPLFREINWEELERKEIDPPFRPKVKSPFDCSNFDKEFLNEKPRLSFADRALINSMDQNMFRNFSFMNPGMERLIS
Chain of UniProt Q9H0K1 (whole entry, looked up): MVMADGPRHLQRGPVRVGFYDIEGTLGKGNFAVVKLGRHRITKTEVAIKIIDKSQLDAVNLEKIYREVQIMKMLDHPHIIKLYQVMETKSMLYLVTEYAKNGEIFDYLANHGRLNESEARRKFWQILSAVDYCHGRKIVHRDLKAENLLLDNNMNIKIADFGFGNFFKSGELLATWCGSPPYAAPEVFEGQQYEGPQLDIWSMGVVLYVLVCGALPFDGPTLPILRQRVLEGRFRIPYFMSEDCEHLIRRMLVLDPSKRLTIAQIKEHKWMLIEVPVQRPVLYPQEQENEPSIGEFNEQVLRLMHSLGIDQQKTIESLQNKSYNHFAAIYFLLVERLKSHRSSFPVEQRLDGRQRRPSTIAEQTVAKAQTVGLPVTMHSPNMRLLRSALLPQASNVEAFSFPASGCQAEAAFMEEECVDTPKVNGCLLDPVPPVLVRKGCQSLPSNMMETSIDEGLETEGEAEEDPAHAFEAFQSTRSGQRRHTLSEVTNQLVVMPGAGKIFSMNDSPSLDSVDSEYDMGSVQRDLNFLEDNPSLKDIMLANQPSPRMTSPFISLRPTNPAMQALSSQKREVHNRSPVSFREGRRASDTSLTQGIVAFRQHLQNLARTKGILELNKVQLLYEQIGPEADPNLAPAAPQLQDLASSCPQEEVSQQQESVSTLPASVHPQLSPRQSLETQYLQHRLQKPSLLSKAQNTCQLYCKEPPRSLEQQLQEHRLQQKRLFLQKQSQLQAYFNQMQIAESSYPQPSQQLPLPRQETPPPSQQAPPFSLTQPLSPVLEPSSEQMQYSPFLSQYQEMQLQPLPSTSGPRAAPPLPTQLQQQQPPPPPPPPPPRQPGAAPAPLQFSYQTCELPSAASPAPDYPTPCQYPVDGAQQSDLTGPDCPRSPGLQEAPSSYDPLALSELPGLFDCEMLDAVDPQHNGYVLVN
Chain of UniProt P23458 (whole entry, looked up): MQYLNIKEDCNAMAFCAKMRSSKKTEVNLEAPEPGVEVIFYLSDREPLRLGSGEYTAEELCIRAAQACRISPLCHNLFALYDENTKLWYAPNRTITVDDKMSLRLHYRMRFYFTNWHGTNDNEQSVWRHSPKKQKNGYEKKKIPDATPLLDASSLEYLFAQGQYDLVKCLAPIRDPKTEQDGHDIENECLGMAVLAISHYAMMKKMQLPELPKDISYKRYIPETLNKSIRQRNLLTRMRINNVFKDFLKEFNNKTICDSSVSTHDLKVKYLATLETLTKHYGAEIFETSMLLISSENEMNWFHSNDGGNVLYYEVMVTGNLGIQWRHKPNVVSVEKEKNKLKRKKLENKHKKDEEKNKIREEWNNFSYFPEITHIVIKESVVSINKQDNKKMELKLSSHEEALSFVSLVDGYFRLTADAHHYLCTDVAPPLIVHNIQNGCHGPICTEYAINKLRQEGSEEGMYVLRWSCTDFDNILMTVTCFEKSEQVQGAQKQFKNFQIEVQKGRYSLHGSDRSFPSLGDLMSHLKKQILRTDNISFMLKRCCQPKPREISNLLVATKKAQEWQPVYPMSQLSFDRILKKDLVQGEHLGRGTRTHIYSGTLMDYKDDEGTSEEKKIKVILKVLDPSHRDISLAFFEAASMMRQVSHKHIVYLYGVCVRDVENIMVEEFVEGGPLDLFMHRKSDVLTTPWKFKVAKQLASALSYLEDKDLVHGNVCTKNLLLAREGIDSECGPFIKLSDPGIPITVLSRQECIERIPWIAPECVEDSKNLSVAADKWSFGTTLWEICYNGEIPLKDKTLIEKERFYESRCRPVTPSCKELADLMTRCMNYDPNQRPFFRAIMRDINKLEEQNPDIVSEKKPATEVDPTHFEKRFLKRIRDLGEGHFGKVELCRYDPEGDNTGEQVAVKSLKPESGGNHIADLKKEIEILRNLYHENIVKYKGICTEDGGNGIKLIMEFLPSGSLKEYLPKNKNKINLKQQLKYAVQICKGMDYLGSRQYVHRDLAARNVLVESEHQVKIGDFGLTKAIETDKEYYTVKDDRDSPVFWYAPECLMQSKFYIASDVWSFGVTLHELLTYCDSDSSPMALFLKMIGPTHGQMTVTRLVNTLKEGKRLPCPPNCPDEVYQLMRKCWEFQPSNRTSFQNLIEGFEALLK
Chain of UniProt Q8N752 (whole entry, looked up): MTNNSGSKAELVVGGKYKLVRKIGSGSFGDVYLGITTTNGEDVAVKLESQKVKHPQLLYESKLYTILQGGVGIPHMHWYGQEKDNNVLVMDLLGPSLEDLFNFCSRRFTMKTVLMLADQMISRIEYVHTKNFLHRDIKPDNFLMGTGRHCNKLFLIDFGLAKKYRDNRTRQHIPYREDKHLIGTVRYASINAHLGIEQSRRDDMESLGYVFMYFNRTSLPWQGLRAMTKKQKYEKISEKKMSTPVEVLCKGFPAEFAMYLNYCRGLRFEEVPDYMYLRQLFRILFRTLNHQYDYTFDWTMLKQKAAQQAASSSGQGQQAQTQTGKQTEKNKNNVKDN

Study 1
SMILES: CCS(=O)(=O)c1cc2cc(C[C@](O)(CC(C)(C)c3ccc(F)cc3C(N)=O)C(F)(F)F)[nH]c2cn1
Effect on: cell-free assay
Technique: competition with immobilised ligand
Concentration: 1 µM
target | remaining binding
MAP3K3 (Homo sapiens, UniProt Q99759) | 92%
HIPK2 (Homo sapiens, UniProt Q9H2X6) | 100%
STK38 (Homo sapiens, UniProt Q15208) | 91%
BMPR1A (Homo sapiens, UniProt P36894) | 100%
PIP5K1C (Homo sapiens, UniProt O60331) | 100%
IRAK3 (Homo sapiens, UniProt Q9Y616) | 96%
CSNK2A1 (Homo sapiens, UniProt P68400) | 100%
PIP5K1A (Homo sapiens, UniProt Q99755) | 100%
DCLK2 (Homo sapiens, UniProt Q8N568) | 100%
ERN1 (Homo sapiens, UniProt O75460) | 91%
EGFR (Homo sapiens, UniProt P00533, del747-750/T751S) | 100%
CLK2 (Homo sapiens, UniProt P49760) | 100%
CSNK1A1L (Homo sapiens, UniProt Q8N752) | 100%
PRKCQ (Homo sapiens, UniProt Q04759) | 87%
EPHB3 (Homo sapiens, UniProt P54753) | 100%

Study 2
Structure (SMILES): C[C@H]1CC[C@H](n2c3cnccc3c3cnc(Nc4ccc5c(n4)CCN(C(=O)CO)C5)nc32)CC1
Concentration: 1 µM
target | test | remaining binding
MKNK1 (Homo sapiens, UniProt Q9BUB5) | binding, competition with immobilised ligand | 68%
PDGFRA (Homo sapiens, UniProt P16234) | DiscoverX KINOMEscan | 62%
DCLK3 (Homo sapiens, UniProt Q9C098) | binding, competition with immobilised ligand | 100%
ABL1 (Homo sapiens, UniProt P00519, F317L) |  | 51% and 82%
CSK (Homo sapiens, UniProt P41240) | cell-free assay, competition with immobilised ligand | 89%
STK33 (Homo sapiens, UniProt Q9BYT3) | binding, competition with immobilised ligand | 100%
RPS6KA4 (Homo sapiens, UniProt O75676) | binding, competition with immobilised ligand | 100%
TAOK2 (Homo sapiens, UniProt Q9UL54) | binding, competition with immobilised ligand | 81%
PIP4K2C (Homo sapiens, UniProt Q8TBX8) | binding | 3.8%
SIK2 (Homo sapiens, UniProt Q9H0K1) | binding, competition with immobilised ligand | 33%

Study 3
SMILES: Cc1nc(Nc2ncc(C(=O)Nc3c(C)cccc3Cl)s2)cc(N2CCN(CCO)CC2)n1
Mode: inhibitor
target | conditions | inhibition [%]
TTK (Homo sapiens, UniProt P33981) | 10 µM | < 50
STK26 (Homo sapiens, UniProt Q9P289) | 10 µM | 93
NUAK1 (Homo sapiens, UniProt O60285) | 10 µM | < 50
TAOK1 (Homo sapiens, UniProt Q7L7X3) | 10 µM | < 50
MAP4K5 (Homo sapiens, UniProt Q9Y4K4) | 10 µM | 100
MAPKAPK2 (Homo sapiens, UniProt P49137) | 1 µM | < 50

Study 4
Compound: O=C(c1cc2cc(O)ccc2[nH]1)c1cc2cc(O)ccc2[nH]1
Effect on: enzyme activity
Mode: inhibitor
Concentration: 0.5 µM
Relative to: control
target | remaining activity [%]
CLK2 (Homo sapiens, UniProt P49760) | 105
FLT1 (Homo sapiens, UniProt P17948) | 81.3
CAMKK1 (Homo sapiens, UniProt Q8N5S9) | 63.3
TEC (Homo sapiens, UniProt P42680) | 105
CSNK1E (Homo sapiens, UniProt P49674) | 88.4
MAP3K20 (Homo sapiens, UniProt Q9NYL2) | 34.3
SIK2 (Homo sapiens, UniProt Q9H0K1) | 78.3
SRPK1 (Homo sapiens, UniProt Q96SB4) | 92.2
Cyclin-dependent kinase 2, with cyclin E (CDK2, Homo sapiens, UniProt P24941) | 65
PAK1 (Homo sapiens, UniProt Q13153) | 94.6
CAMK1 (Homo sapiens, UniProt Q14012) | 97.4
PRKCQ (Homo sapiens, UniProt Q04759) | 92.1
EPHA2 (Homo sapiens, UniProt P29317) | 101
RPS6KA3 (Homo sapiens, UniProt P51812) | 37.7
PAK6 (Homo sapiens, UniProt Q9NQU5) | 74.4
SGK2 (Homo sapiens, UniProt Q9HBY8) | 94.3
IGF1R (Homo sapiens, UniProt P08069) | 103
CLK1 (Homo sapiens, UniProt P49759) | 82.1
JAK1 (Homo sapiens, UniProt P23458) | 98.7
MUSK (Homo sapiens, UniProt O15146) | 55.1
CSNK1D (Homo sapiens, UniProt P48730) | 92.5

Repeated from above (study 2):
target | test | remaining binding
PDGFRA (Homo sapiens, UniProt P16234) | DiscoverX KINOMEscan | 62%
DCLK3 (Homo sapiens, UniProt Q9C098) | binding, competition with immobilised ligand | 100%
ABL1 (Homo sapiens, UniProt P00519, F317L) |  | 51% and 82%
CSK (Homo sapiens, UniProt P41240) | cell-free assay, competition with immobilised ligand | 89%
STK33 (Homo sapiens, UniProt Q9BYT3) | binding, competition with immobilised ligand | 100%
RPS6KA4 (Homo sapiens, UniProt O75676) | binding, competition with immobilised ligand | 100%
TAOK2 (Homo sapiens, UniProt Q9UL54) | binding, competition with immobilised ligand | 81%
PIP4K2C (Homo sapiens, UniProt Q8TBX8) | binding | 3.8%
SIK2 (Homo sapiens, UniProt Q9H0K1) | binding, competition with immobilised ligand | 33%
